Results of several laboratories.
Protocols differ between the studies behind these lines.
Method: steady-state kinetics
B1: alanine racemase H166F (Geobacillus stearothermophilus, UniProt P10724); chain MNDFHRDTWAEVDLDAIYDNVENLRRLLPDDTHIMAVVKANAYGHGDVQVARTALEAGASRLAVAFLDEALALREKGIEAPILVLGASRPADAALAAQQRIALTVFRSDWLEEASALYSGPFPIHFHLKMDTGMGRLGVKDEEETKRIVALIERHPHFVLEGLYTFFATADEVNTDYFSYQYTRFLHMLEWLPSRPPLVHCANSAASLRFPDRTFNMVRFGIAMYGLAPSPGIKPLLPYPLKEAFSLHSRLVHVKKLQPGEKVSYGATYTAQTEEWIGTIPIGYADGWLRRLQHFHVLVDGQKAPIVGRICMDQCMIRLPGPLPVGTKVTLIGRQGDEVISIDDVARHLETINYEVPCTISYRVPRIFFRHKRIMEVRNAIGRGESSA
B2: BaiA1 (Clostridium scindens, UniProt P07914); chain MKLVQDKITIITGGTRGIGFAAAKLFIENGAKVSIFGETQEEVDTALAQLKELYPEEEVLGFAPDLTSRDAVMAAVGTVAQKYGRLDVMINNAGITMNSVFSRVSEEDFKNIMDINVNGVFNGAWSAYQCMKDAKQGVIINTASVTGIYGSLSGIGYPTSKAGVIGLTHGLGREIIRKNIRVVGVAPGVVDTDMTKGLPPEILEDYLKTLPMKRMLKPEEIANVYLFLASDLASGITATTISVDGAYRP
B3: enzyme (Brachypodium distachyon, UniProt I1HY48); chain MGSIASEERTVTGWAARDADGHLSPYTYTLRKTGPEDVLVKVLYCGICHTDIHQAKNHLGASKYPMVPGHEVVGEVVEVGGEVSKYSAGDVVGVGVIVGCCRECRPCKASVEQYCNKRIWSYNDVYTDGRPTQGGFSSAMVVDQKFVVRIPAGLAPEQAAPLLCAGVTVYSPLKHFGLMSPGLRGGILGLGGVGHMGVKVAKSMGHHVTVISSSGKKRAEAMDDLGADAYLVSSDADQMAAAADSLDYVIDTVPVKHPLEPYLSLLKMDGKLVLMGVIGEPLSFVSPMVMLGRKSITGSFIGSMEETEEVLKFCVEKGLTSQIEVVKMDYLNEALERLERNDVRYRFVVDVAGSKIEDAA
B4: Cop6 (Coprinopsis cinerea, UniProt A8NCK5); chain MPAALPYNVSRDNKWDIKKIIQDFFKRCDVPYQVIPYDTELWNACLKRAKEKGYPVEPDSPMSLYRSFKVGVVITRTSYGHIQDYEILIWVATFTAFVTYADDAFQEDIQHLHSFARTFLQNEKHEHPVLEAFAQFLRESSIRFSHFVANTVVSSALRFMMSIALEFEGQNVSVSTEAREYPGYIRILSGLSDIYALFAFPMDLPRSTYIQAFPEQIDYINGTNDLLSFYKEELDCETVNFISAAATSQQVSKLEVLRNAAEKAAYSYDVVVNVLKPYPEALAAWKSFARGFCYFHTSSPRYRLGEMFHDFEHDLVCKCASCTEI
B5: asnB E349D (Escherichia coli, UniProt P22106); chain CSIFGVFDIKTDAVELRKKALELSRLMRHRGPDWSGIYASDNAILAHERLSIVDVNAGAQPLYNQQKTHVLAVNGEIYNHQALRAEYGDRYQFQTGSDCEVILALYQEKGPEFLDDLQGMFAFALYDSEKDAYLIGRDHLGIIPLYMGYDEHGQLYVASEMKALVPVCRTIKEFPAGSYLWSQDGEIRSYYHRDWFDYDAVKDNVTDKNELRQALEDSVKSHLMSDVPYGVLLSGGLDSSIISAITKKYAARRVEDQERSEAWWPQLHSFAVGLPGSPDLKAAQEVANHLGTVHHEIHFTVQEGLDAIRDVIYHIETYDVTTIRASTPMYLMSRKIKAMGIKMVLSGDGSDEVFGGYLYFHKAPNAKELHEETVRKLLALHMYDCARANKAMSAWGVEARVPFLDKKFLDVAMRINPQDKMCGNGKMEKHILRECFEAYLPASVAWRQKEQFSDGVGYSWIDTLKEVAAQQVSDQQLETARFRFPYNTPTSKEAYLYREIFEELFPLPSAAECVPGGPSVACSSAKAIEWDEAFKKMDDPSGRAVGVHQSAYK
B6: Sua5 (Pyrococcus abyssi, UniProt Q9UYB2); chain MTIIINVRERIEEWKIRIAAGFIREGKLVAFPTETVYGLGANALDENAVKRIFEAKGRPADNPLIIHIASFEQLEVLAKEIPEEAEMLAKRFWPGPLTLVLPKSEVVPRVITGGLDTVAVRMPAHEIALKLIELSERPIAAPSANISGKPSPTSAHHVAEDFYGKIECIIDGGETRIGVESTVIDLTEWPPVLLRPGGLPLEEIEKVIGEIRIHPAVYGKSVDTAKAPGMKYRHYAPSAEVIVVEGPRDKVRRKIEELIAKFKEEGKKVGVIGSGSYDADEVFYLGDTVEEIARNLFKALRHMDRTGVDVILAEGVEEKGLGLAVMNRLRKASGYRIIKV
B7: pdh1 (Macropsalliota meleagris, UniProt Q3L245); chain AITYQHPDDLPSGVDYDFIVAGGGTAGLVVASRLSENSNWKVLVIEAGPSNKDAFVTRVPGLASTLGAGSPIDWNYTTIPQDGLDGRSLDYPRAKILGGCSTHNGMVYTRGSKDDWNSWAGIIGDQGLGWDSILPAIKKAEKFTQDFTDQSVKGHIDPSVHGFDGKLSVSAAYSNISFNDLLFETTKELNAEFPFKLDMNDGKPIGLGWTQYTIDNHAERSSSATSYLESTGDNVHVLVNTLVTRVLSASGNGTDFRKVEFAVDANSPKKQLEAKKEVIVAGGVIASPQILMNSGIGERKVLQAVGIDTLIDNPSVGKNLSDQGATSVMFDTTLPSTDFDVDAALTEWTNSHTGPLARGARLNHLTFVRLPDDKLNGQDPSSGKNSPHIEFQFAQITPQVPTLGVPKQAPLPAANSYRLLLQLAVVNLYSISRGSISLSDNNPFTYPLIDLNMFKEDIDIAILREGIRSAGRMFSSKAFKNSVNKFVYPPADATSDEDLDAFLRSSTFSYVHGVGTLSMSPKGASWGVVNPDFKVKGTSGLRVVDASVIPHAPAAHTQLPVYAFAEYASALIAKSYN
B8: protein (Streptomyces coelicolor, UniProt Q9K464); chain MAAYLCAPAVIHGEHSVETREIVEEVRGRHPHAPWAPRIDGIAASTGIESRGWMLPLEAAVAPGGGGDLGAAREALVRDGFTEQDANRAIAALKAVPASQTVQERTAPAWEAVQAYGERAARGALQIAGLDVADVDCLITSNSTTPALPGLDVALANRLPLRGDTMLLPATQWACVAGTRSLALAADLVAADPDRVVLVVISEALSTTYQPADDTLESLIVRLLFADTAVAAVVTGRPRPESVLRLDAAWHHTLPGTRDLHRLETRADGTHFVMDRRGPRAVQETVTAMWEWLRVRYEDDPSSWHPDVLLAHPGGTRVLEYMEQTMPDEWPSGLLSYSRDSYTSGNRGGAAVFDILRRAHDAGQKTGSRAVLYAAAPGLTATALEGEWL

B1 (alanine racemase H166F)  Km (C[C@@H](N)C(=O)O; pH 9, room temperature, together with: NAD+ 10 mM): 3900 µM
protein (Candidatus Protochlamydia amoebophila, UniProt Q6MEN4)  Km (Nc1ncnc2c1ncn2[C@@H]1O[C@H](COP(=O)(O)OP(=O)(O)OP(=O)(O)O)[C@@H](O)[C@H]1O; pH 7, 30 °C, transporter, labelled substrate, apparent, not purified): 437 µM
B2 (BaiA1)  Km (C[C@H](CCC(=O)SCCNC(=O)CCNC(=O)[C@H](O)C(C)(C)COP(=O)(O)OP(=O)(O)OC[C@H]1O[C@@H](n2cnc3c(N)ncnc32)[C@H](O)[C@@H]1OP(=O)(O)O)[C@H]1CC[C@H]2[C@@H]3CC[C@@H]4CC(=O)CC[C@]4(C)[C@H]3CC[C@]12C; pH 8.7, 37 °C, together with: NADH): 8.3 µM
B3 (enzyme)  Km (NC(=O)c1ccc[n+]([C@@H]2O[C@H](COP(=O)(O)OP(=O)(O)OC[C@H]3O[C@@H](n4cnc5c(N)ncnc54)[C@H](OP(=O)(O)O)[C@@H]3O)[C@@H](O)[C@H]2O)c1; pH 8.8, 23 °C, cofactor varied): 0.72 µM
B4 (Cop6)  Km (CC(C)=CCC/C(C)=C/COP(=O)(O)OP(=O)(O)O; pH 8, 30 °C, together with: MgCl2 10 mM): 1.5 µM
enzyme (Halomonas elongata, UniProt E1V931)  Km (NC(=O)C1=CN([C@@H]2O[C@H](COP(=O)(O)OP(=O)(O)OC[C@H]3O[C@@H](n4cnc5c(N)ncnc54)[C@H](O)[C@@H]3O)[C@@H](O)[C@H]2O)C=CC1; pH 8, 25 °C, cofactor varied): 180 µM
B5 (asnB E349D)  Km (N[C@@H](CC(=O)O)C(=O)O; pH 8, 37 °C, apparent, together with: L-glutamine 20 mM): 130 µM
B6 (Sua5)  Km (Nc1ncnc2c1ncn2[C@@H]1O[C@H](COP(=O)(O)OP(=O)(O)OP(=O)(O)O)[C@@H](O)[C@H]1O; pH 8, 50 °C, together with: L-threonine, ATP 5–500 µM, MnCl2 1 mM, MgCl2 10 mM): 5.5 µM
oxalate oxidase (Gelatoporia subvermispora, UniProt Q5ZH56)  Km (O=C(O)C(=O)O; pH 4, together with: oxalate 0.01-90 mM): 1500 µM
protein (Strongylocentrotus purpuratus, UniProt A0A7M7RGC6)  Km (CC(C)(COP(=O)(O)OP(=O)(O)OC[C@H]1O[C@@H](n2cnc3c(N)ncnc32)[C@H](O)[C@@H]1OP(=O)(O)O)[C@@H](O)C(=O)NCCC(=O)NCCSC(=O)CC(=O)O; without acetyl-CoA, together with: malonyl-CoA): 0.94 µM
carbamoyl phosphate synthetase large subunit (Escherichia coli, UniProt P00968)  Km (Nc1ncnc2c1ncn2[C@@H]1O[C@H](COP(=O)(O)OP(=O)(O)OP(=O)(O)O)[C@@H](O)[C@H]1O; pH 7.6, KCl 100 mM, together with: glutamine 10 mM, ornithine 10 mM): 240 µM
B7 (pdh1)  Km (CN(C)c1ccc2nc3ccc(N(C)C)c([N+](=O)[O-])c3[s+]c2c1; pH 7.5, 22 °C, apparent): 140 µM
B8 (protein)  Km (CC(=O)CC(=O)SCCNC(=O)CCNC(=O)[C@H](O)C(C)(C)COP(=O)(O)OP(=O)(O)OC[C@H]1O[C@@H](n2cnc3c(N)ncnc32)[C@H](O)[C@@H]1OP(=O)(O)O; pH 7.8, 30 °C, NaCl 150 mM, together with: methylmalonyl-CoA 1.0 mM): 75.2 µM

For quick reference, copied from above:
carbamoyl phosphate synthetase large subunit (Escherichia coli, UniProt P00968)  Km (Nc1ncnc2c1ncn2[C@@H]1O[C@H](COP(=O)(O)OP(=O)(O)OP(=O)(O)O)[C@@H](O)[C@H]1O; pH 7.6, KCl 100 mM, together with: glutamine 10 mM, ornithine 10 mM): 240 µM
